{"data": "Measurements collected from several papers", "note": "Each numbered part is a random draw from the data of one study; scales do not carry over between parts."}
{"data": "Set 1", "target": "Histone acetyltransferase KAT6A, both winged helices, GST fusion (KAT6A, Homo sapiens, UniProt Q92794, residues 1-181)", "technique": "protein binding microarray", "molecule type": "double-stranded DNA, one strand shown", "matrix": "in vitro", "tested at": "not given", "notes": "8-mer, flanks averaged, mean of 2 arrays, mostly near background", "reference": "not given", "reading": "higher = stronger binding", "Residues (chain)": "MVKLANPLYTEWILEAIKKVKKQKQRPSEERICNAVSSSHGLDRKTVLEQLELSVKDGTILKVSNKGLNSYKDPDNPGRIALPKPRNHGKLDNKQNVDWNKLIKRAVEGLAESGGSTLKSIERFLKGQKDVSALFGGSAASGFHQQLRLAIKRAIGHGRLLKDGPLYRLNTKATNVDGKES"}
{"Oligonucleotide": "GGGAGTAA", "E-score": -0.134}
{"Oligonucleotide": "AACAGCGA", "E-score": 0.0383}
{"Oligonucleotide": "ATCCCCCG", "E-score": 0.0578}
{"data": "Set 2", "target": "Centromere-binding protein 1, full length, N-terminal tag (CBF1, Saccharomyces cerevisiae, UniProt P17106, residues 1-351)", "technique": "protein-binding microarray", "molecule type": "double-stranded DNA, one strand shown", "matrix": "in vitro", "tested at": "0.8 µM", "notes": "whole 60-bp probe, no competitor", "reading": "higher = stronger binding", "UniProt P17106, sequence (whole entry, looked up)": "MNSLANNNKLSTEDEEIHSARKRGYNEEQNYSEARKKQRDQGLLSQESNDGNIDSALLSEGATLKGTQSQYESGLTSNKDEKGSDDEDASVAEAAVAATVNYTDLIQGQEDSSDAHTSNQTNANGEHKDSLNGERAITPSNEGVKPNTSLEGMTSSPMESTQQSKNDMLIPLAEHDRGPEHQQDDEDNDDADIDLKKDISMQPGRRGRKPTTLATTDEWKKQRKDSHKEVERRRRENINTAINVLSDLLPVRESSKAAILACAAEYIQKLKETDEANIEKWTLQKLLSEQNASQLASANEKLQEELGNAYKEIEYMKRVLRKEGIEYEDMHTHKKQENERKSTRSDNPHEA"}
{"Oligonucleotide": "GAAATTTTTTTCGGTGACATCAGTTGAAAGTAGTAGGTCTTGATTCGCTTGACGCTGCTG", "fluorescence intensity [a.u.]": 569}
{"Oligonucleotide": "TGTACGAAGCTATGGGAGATCACTATAGTAGTTAGGGTCTTGATTCGCTTGACGCTGCTG", "fluorescence intensity [a.u.]": 515}
{"Oligonucleotide": "CTAACAATTTCGTCCGACGTGATCTGGAAAATATTCGTCTTGATTCGCTTGACGCTGCTG", "fluorescence intensity [a.u.]": 1020}
{"data": "Further values, each from its own experiment"}
{"Molecule": "GCCTAGCACTCATTTCTTTTATTAGTACTGTGCTAGGTCTTGATTCGCTTGACGCTGCTG", "target": "Interferon regulatory factor 5, full length, phosphomimetic (IRF5, Homo sapiens, UniProt Q13568-2, residues 1-514, K96S/S451D/S453D/S456D/S462D)", "test": "protein-binding microarray", "test system": "double-stranded DNA, one strand shown, in vitro", "setting": "250 nM, 60-bp whole probe, with: salmon DNA 0.4 mg/ml", "how to read": "reference: random background probes, higher = stronger binding", "endpoint": "log fluorescence", "value": "1.63 z-score"}
{"Molecule": "PhoQ, residues 284 288 289 292 302 303 ASVMEA", "target": "PhoP, residues 12 14 15 18 19 NNFVT (Escherichia coli, UniProt P23836)", "test": "Sort-seq, item: YFP reporter", "test system": "E. coli", "setting": "PhoQ-PhoP variant library, with: 10 µM Mg2+", "how to read": "reference: high Mg2+ state, higher = stronger signaling", "endpoint": "fold induction", "value": 8.34}
{"Molecule": "GCCTAGCACTTAGATTTCGGGACTGGGTTAGTGCTAGTCTTGATTCGCTTGACGCTGCTG", "target": "Interferon regulatory factor 5, full length, phosphomimetic (IRF5, Homo sapiens, UniProt Q13568-2, residues 1-514, S451D/S453D/S456D/S462D)", "test": "protein-binding microarray", "test system": "double-stranded DNA, one strand shown, in vitro", "setting": "940 nM top, 60-bp whole probe, with: salmon DNA 0.4 mg/ml", "how to read": "reference: random background probes, higher = stronger binding", "endpoint": "fitted relative affinity", "value": "0.566 z-score"}
{"note": "For quick reference, copied from above (set 1):"}
{"Oligonucleotide": "AACAGCGA", "E-score": 0.0383}
